# Published values from different studies.
# A part holds a random share of what one study measured. Positions count from the first letter of the parent shown.
# UniProt Q96J92, sequence (whole entry, looked up): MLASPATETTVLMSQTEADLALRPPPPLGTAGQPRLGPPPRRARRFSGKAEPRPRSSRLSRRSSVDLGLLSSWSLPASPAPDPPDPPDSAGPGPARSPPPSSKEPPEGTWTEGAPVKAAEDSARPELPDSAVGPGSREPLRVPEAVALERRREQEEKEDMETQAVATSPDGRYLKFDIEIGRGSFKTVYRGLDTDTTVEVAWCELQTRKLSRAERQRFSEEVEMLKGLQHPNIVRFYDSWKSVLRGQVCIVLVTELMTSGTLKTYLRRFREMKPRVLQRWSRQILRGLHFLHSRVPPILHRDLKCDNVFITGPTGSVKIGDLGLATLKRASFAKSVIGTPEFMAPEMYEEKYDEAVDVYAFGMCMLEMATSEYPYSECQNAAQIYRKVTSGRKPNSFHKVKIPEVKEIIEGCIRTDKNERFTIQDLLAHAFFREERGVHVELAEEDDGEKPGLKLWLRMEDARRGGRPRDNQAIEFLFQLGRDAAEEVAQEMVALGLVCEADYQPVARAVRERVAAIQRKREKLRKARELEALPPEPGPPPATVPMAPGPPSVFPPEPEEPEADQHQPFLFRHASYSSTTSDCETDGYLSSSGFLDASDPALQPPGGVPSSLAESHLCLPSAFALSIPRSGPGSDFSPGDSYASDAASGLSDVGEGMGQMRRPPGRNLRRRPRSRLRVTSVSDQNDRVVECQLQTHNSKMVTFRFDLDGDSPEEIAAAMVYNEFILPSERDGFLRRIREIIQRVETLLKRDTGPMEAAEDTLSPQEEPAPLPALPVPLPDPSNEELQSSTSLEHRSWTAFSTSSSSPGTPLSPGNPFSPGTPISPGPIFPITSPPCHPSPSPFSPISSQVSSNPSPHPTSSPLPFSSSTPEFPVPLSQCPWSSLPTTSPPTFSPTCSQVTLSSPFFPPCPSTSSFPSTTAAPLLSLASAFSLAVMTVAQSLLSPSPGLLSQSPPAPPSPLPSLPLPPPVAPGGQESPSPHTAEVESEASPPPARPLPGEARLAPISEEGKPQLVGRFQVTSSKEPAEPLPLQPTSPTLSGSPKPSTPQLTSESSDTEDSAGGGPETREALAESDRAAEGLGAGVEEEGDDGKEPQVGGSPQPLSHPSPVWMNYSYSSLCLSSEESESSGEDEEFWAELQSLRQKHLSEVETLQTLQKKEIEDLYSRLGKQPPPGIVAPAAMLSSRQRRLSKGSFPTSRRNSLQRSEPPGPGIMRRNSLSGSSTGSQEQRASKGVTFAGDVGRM

# Series 1 — read-out: peptide-MHC binding; form: peptide; tested at: concentration not given
# Target: HLA class I histocompatibility antigen, C alpha chain, allele C*04:01 (Homo sapiens, UniProt P10321)
Sequence,binding
LMYPTTLLK,inactive
RQRAVRMVL,inactive
HYMLKHLVW,inactive

# Series 2 — target: CEP164, C-terminal peptide (human); method: DHFR complementation, deep sequencing; sample: yeast; reference: wild type; direction: higher = weaker binding
# Setting: single substitutions, model-inferred values
# Starting sequence: PDZK1, PDZ domain 2 (human); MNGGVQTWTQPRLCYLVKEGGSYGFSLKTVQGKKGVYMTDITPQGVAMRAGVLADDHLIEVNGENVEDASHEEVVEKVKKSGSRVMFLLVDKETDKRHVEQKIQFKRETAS; partner HNRVKVYRF
Variant,binding free energy change [kcal/mol]
I41W,1.42
L53G,0.596
E100V,-0.0404
K34H,0.339
A47Y,0.697
D91N,-0.162
H57I,-0.637
Q31P,-0.175

# Series 3 — target: CCND1, cyclin fold, Cln2 fusion (human); method: yeast growth competition, sequencing; sample: yeast; setting: strong parent motif; reference: not given; direction: higher = stronger binding
# Starting sequence: viral docking peptide; YKVKRRLVFGADD; partner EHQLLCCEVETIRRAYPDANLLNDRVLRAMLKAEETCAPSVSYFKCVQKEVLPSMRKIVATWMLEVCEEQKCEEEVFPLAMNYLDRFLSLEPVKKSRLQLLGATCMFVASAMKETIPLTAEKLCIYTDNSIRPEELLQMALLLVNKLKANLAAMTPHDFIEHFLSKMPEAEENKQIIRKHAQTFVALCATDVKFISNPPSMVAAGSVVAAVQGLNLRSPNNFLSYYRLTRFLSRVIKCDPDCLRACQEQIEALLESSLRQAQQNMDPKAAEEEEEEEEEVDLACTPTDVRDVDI
Variant,normalised enrichment score
YKVKRRLVFGAVD [D12V],1.16
YKVFRRLVFGADD [K4F],0.0714
YKFKRRLVFGADD [V3F],0.734
YKVKRRLVFGAID [D12I],0.861
YKVKRRLVFGAMD [D12M],1.2
YKVKRRLVFGFDD [A11F],1.48
YKVKARLVFGADD [R5A],0.524
YKVCRRLVFGADD [K4C],4.27
YKVKRRFVFGADD [L7F],0.581
YKVKRQLVFGADD [R6Q],1.5
YKVKRRRVFGADD [L7R],-0.11
YIVKRRLVFGADD [K2I],0.859
YKSKRRLVFGADD [V3S],2.31
YKVKRRLDFGADD [V8D],4.71

# Series 4 — method: universal PBM; form: double-stranded DNA, one strand shown; sample: in vitro; tested at: 600 nM; direction: higher = stronger binding
# Target: Sal-like protein 4, full length isoform A (SALL4, Homo sapiens, UniProt Q9UJQ4, residues 1-1053)
# UniProt Q9UJQ4, sequence (whole entry, looked up): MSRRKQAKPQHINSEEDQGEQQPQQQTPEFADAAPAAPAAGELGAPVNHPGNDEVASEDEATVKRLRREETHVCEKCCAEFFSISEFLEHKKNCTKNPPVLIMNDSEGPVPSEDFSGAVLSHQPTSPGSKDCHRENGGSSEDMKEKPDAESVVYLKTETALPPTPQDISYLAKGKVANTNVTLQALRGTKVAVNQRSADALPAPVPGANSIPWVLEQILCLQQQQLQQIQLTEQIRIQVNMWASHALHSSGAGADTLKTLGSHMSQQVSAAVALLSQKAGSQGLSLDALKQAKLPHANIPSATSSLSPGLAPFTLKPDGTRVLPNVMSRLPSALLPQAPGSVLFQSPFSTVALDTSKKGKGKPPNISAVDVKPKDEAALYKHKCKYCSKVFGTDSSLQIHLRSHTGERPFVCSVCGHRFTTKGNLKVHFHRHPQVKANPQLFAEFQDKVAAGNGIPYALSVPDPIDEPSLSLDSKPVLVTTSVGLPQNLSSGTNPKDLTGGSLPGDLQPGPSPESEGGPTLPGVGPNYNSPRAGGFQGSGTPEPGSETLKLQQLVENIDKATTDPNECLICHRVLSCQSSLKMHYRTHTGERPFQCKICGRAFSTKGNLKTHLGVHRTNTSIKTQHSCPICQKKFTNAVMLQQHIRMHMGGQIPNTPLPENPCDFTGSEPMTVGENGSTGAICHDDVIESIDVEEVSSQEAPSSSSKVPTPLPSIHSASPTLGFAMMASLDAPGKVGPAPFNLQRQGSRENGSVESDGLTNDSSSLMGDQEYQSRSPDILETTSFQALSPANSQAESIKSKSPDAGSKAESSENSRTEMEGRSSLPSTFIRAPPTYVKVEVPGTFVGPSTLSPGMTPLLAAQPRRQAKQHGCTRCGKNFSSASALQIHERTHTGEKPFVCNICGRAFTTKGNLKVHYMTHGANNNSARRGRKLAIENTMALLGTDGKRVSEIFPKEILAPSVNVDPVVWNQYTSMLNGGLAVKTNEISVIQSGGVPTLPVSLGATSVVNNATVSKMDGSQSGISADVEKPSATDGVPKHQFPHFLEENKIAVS
# Setting: 8-mer, flanks averaged, mean of replicates
Oligonucleotide,E-score
CGCCGTCA,-0.257
AAAATCAG,0.0736
ACTTGGGA,-0.113
ACAACAAC,0.186
CGGGTGTC,-0.272
ACCGTACA,0.0597
CAATTGAG,-0.0446
ACGCGGAC,-0.201

# Mixed results
SMILES,target,assay,conditions,endpoint,value
Cn1cncc1[C@](O)(COc1ccc(C#N)cc1-c1ccc(OC(F)(F)F)cc1)c1ccc(C#N)cc1,"Serine/threonine-protein kinase WNK4 (WNK4, Homo sapiens, UniProt Q96J92)","cell-free assay, competition with immobilised ligand",1 µM,remaining binding,100%

# Repeated from above (series 2):
Variant,binding free energy change [kcal/mol]
E100V,-0.0404
K34H,0.339
A47Y,0.697
D91N,-0.162
H57I,-0.637
